Published values of several laboratories.
Numbered parts are unrelated; each lists some results of a single study. Positions count from the first letter of the parent shown.

Sample 1
Target: ABI1, truncated, D143A, DHFR fusion (Arabidopsis thaliana)
Method: DHFR PCA, deep sequencing
Sample: yeast
Notes: methotrexate growth selection, single substitutions
Together with: (+)-ABA 0.032 µM
Reference: wild-type fitted maximum
Direction: higher = stronger binding
Quantity: relative binding score
Parent: PYL1, truncated, DHFR fusion (Arabidopsis thaliana); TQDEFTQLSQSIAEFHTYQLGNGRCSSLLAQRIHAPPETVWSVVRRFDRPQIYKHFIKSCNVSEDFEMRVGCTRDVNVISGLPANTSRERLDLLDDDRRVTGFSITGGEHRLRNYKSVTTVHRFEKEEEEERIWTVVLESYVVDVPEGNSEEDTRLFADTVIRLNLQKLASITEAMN
T120F: -1.58%
K126F: 17.7%
R98N: 10.2%
D96T: 0.902%
R32H: 8.76%
V118R: 37.1%
A158I: 41.4%
V161P: 4.14%
F66V: 3.97%
L94Q: -1.71%
I133G: 35.9%
E151R: 15.8%
S104K: -3.43%
L93C: 9.21%
I162M: 2.75%

Sample 2
Target: CCND3, cyclin fold, Cln2 fusion (human)
Method: yeast growth competition, sequencing
Sample: yeast
Notes: weak parent motif
Reference: not given
Direction: higher = stronger binding
Quantity: normalised enrichment score
Parent: RP1L1 docking peptide (human); TLGLGPLSFTLED
ALGLGPLSFTLED [T1A]: -0.382
TLGLAPLSFTLED [G5A]: -0.514
TLGLGPLAFTLED [S8A]: -0.417
TLGAGPLSFTLED [L4A]: 0.0693
TLGLGPLSFTAED [L11A]: -0.254
TLGLGPLSFTLAD [E12A]: -0.162

Sample 3
Target: Histone acetyltransferase KAT6A, winged helix 1, GST fusion (KAT6A, Homo sapiens, UniProt Q92794, residues 1-85)
Method: protein binding microarray
Form: double-stranded DNA, one strand shown
Sample: in vitro
Tested at: not given
Notes: 8-mer, flanks averaged, mean of 2 arrays, mostly near background
Reference: not given
Direction: higher = stronger binding
Quantity: E-score
Target sequence (chain): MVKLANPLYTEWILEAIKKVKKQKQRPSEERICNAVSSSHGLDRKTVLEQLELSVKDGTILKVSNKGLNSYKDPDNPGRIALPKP
AGTTAGAC: 0.0094
ACAGCGTC: 0.0496
TCGTGTAA: -0.0532
CTATCCGA: -0.052
ACGTTGAC: -0.14
CCCCACGC: 0.101
AGGTCGGA: -0.0176
CGCTGGTC: 0.243
TAGTTGAA: -0.0488
GACCTCAC: -0.0172
CACGTCAA: -0.121
CCGTGACC: 0.287
GATCGTCA: -0.179
AAATTACT: -0.122
AACGTGCC: 0.0532
CTTCACGC: 0.162
CAAACGGG: 0.269
ACCAGGTG: -0.0721
CTTTCTAA: -0.104
TACGAAAA: -0.219
AGGTGCAG: -0.163
CACATGAC: -0.134
CACGGCCA: 0.221
CCAAAGTA: -0.179
CATTGATC: -0.178

Sample 4
Target: Microphthalmia-associated transcription factor, full length (MITF, Homo sapiens, UniProt O75030-10, residues 1-413)
Method: protein-binding microarray
Form: double-stranded DNA, one strand shown
Sample: in vitro
Tested at: not given
Notes: k-mer, scored over probes, only values ≥0.25
Direction: higher = stronger binding
Quantity: E-score
Target sequence (chain): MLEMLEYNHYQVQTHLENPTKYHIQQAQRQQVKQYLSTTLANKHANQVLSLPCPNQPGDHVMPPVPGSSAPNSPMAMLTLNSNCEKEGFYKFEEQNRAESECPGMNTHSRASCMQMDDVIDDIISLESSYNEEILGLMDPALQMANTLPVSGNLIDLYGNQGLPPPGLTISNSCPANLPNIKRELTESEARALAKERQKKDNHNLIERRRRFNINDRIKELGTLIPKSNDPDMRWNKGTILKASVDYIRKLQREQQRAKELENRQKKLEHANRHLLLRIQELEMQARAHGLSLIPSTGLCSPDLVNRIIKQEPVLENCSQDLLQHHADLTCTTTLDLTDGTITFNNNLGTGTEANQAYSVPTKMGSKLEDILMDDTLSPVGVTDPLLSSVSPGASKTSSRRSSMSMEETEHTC
AATCACA: 0.31
ATGACCG: 0.266
AGGCACG: 0.274
CCCGTGA: 0.47
CACGCGC: 0.442
CATCACA: 0.267
ACGTGAC: 0.476
CACGTTA: 0.298
CATCATG: 0.347
ACGCGAC: 0.265
CGTGATC: 0.448
CTTATGA: 0.281
CGTGTGA: 0.425
GTGACTA: 0.321
AGACACG: 0.298
AATCACG: 0.435
CACATGC: 0.42

Sample 5
Target: Prothrombin, mature alpha-thrombin (F2, Homo sapiens, UniProt P00734)
Method: aptamer microarray, sandwich
Form: DNA with 2'F-ANA
Sample: in vitro
Tested at: 200 nM
Notes: whole 15-mer aptamer, many near background
Together with: Cy3 exosite-II aptamer, 400 nM
Direction: higher = stronger binding
Quantity: mean fluorescence intensity
Sequence: GGTTGGTGTGGTTGG
2'F-ANA at 5 8 9 11 12 14: 52.8 a.u.
2'F-ANA at 1 3 4 9 10 12: 87.1 a.u.
2'F-ANA at 1 2 4 9 12 14: 53.9 a.u.
2'F-ANA at 3 5 6 8 11 13 14: 56.2 a.u.
2'F-ANA at 1 4 6 7 8 9 11 14: 60.4 a.u.
2'F-ANA at 3 6 7 10 12 13: 581 a.u.
2'F-ANA at 4 6 11 13 14: 76.6 a.u.
2'F-ANA at 1 4 5 6 7 8 10 12: 50.2 a.u.
2'F-ANA at 1 2 3 4 5 8 9 10 11 13 14: 56.2 a.u.
2'F-ANA at 4 6 7 8 10 11: 77.3 a.u.
2'F-ANA at 3 4 10 15: 332 a.u.
2'F-ANA at 1 4 7 8 11: 139 a.u.
2'F-ANA at 1 6 7 8 9 10 11 12 13: 63.9 a.u.
2'F-ANA at 1 2 4 7 8 10 11 14: 48.4 a.u.
2'F-ANA at 4 5 6 7 8 9 10 12 13: 46.7 a.u.
2'F-ANA at 3 5 7 8 12 14 15: 70.9 a.u.
2'F-ANA at 1 2 4 7 9 10 11 13: 49.8 a.u.
2'F-ANA at 1 2 4 6 7 8 9 10 13 14 15: 57.6 a.u.
2'F-ANA at 1 2 6 7 8 12 13 14 15: 70.4 a.u.
2'F-ANA at 2 4 5 8 9 12 13 14 15: 45.6 a.u.
2'F-ANA at 1 2 4 5 6 7 10 12 13 15: 69.1 a.u.
2'F-ANA at 2 9 10 11 13 14: 85.4 a.u.
2'F-ANA at 1 2 4 7 8 9 11 14 15: 73.2 a.u.
2'F-ANA at 1 3 7 8 9 15: 379 a.u.
2'F-ANA at 1 2 4 5 9 11 12 15: 93.5 a.u.

Sample 6
Target: RNA binding protein fox-1 homolog 2, RRM domain, GST-SBP tag (RBFOX2, Homo sapiens, UniProt O43251-10, residues 100-194)
Method: RNA Bind-n-Seq
Form: RNA
Sample: in vitro
Tested at: 365 nM
Notes: natural RNA segment, single round, ends assumed
Reference: no-protein control
Direction: higher = stronger binding
Quantity: RBNS enrichment (R)
Constant ends, left off below: GGGAGUUCUACAGUCCGACGAUC … UGGAAUUCUCGGGUGCCAA
Target sequence (chain): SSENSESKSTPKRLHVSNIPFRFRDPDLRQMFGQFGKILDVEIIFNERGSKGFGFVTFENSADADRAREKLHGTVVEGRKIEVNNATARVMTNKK
GAUCUGGAGGAGGGCAGCGGAGCCUGCCUCGGUUCAGUGAUGGUUUUUCUUACCUGCUUCAAGCCGAGAUCUGAAAGCUUUGUGGAAGAUGAUCAAGCAAAGCUCCCAAG: 0.396
GCCCCACGGCUGAAGCUGCAUCUGAUGAAACUGAUGGGUACUGCUUGUCCCUCAGCUCACACUUGGCGGUGGCCUCUCGAUCACUCUGGGUCUUGGGAGCUCUUGCCUUC: 1.51
AGAUGUGGUCGGGGCCACGCUUCCCACUGGUUCUGCAGUGAGGAGUUGGGGCGGGUGAGCCAAAGCGGCCCCCCAUGGUGUCUACCUGAGGGGCAGGGAACCGCCUGCCU: 0.195
CUGCUGCCCUAGCGCCGGCUUGGCCGCGCCCACGCGCCCUCAAGCCAUGCUGCUCCUUUCUGUAAAUACCCGCUGCAGUGGCGGCCCAGAGCGAGGAACAAGCCAUUAGG: 0.214
UCUGUGAUAGCUGUAGUUUCUUUCAUAGAAAGUAGCUAAUCCAGUGUAAUCUUUUACCUUUUUAAAAACCAAGAUAGAGUAUCUAUUAGAGUUUUACAUUGUUGAUGAUA: 0.357
CCUGUAGAGACCUGAAAAUCCCACUUGUUUACCCUAGAAUUCAGUGGCAUUUACUGCUUCUUGAUCUCUAACCACUUGAGUUGGGUCAAGAGGAUUCUGGGCGUGGCAAG: 0.214
GCCCUAGUGCUUCCAUCUGAUGGGGUGACCACACCCCUCACAUUCCACAGGCCUGAUUUUUAUAAAAAACUACCAAUGCUGAUCAAUAAAGUGGGUUUUUUUUAUAGCUU: 0.339
CUCUCCCAAGAUUUCUCUUCUCUCCACACCAGACCUCGUUCAUUUGACUAACAUUUUCCAGCGCCUACUAUGUGUCAGAAACAAGUGUUUCUGCCUGGACAUCAUAAAUG: 0.773
CUGCCUCCUUUUAAUUGUAUUCAUUUAGAUUUUGAUUUUCCAUGUUAAGAAGGUGAGGUCCAUGUUGGUGCCCUUCAGAGUAGAGAACCAUGUAAACAUUAGGAAUGAAC: 0.624
CCUUCCUCCUCCUUUGCCUAGGAGGCCUUCUCGCAUUUUCUCUAGCUGAUCAGAAUUUUACCAAAAUUCAGAACAUCCUCCAAUUCCACAGUCUCUGGGAGACUUUCCCU: 0.968
AUGUAUUGUAAAAUUUUGUAGUUUUGAUCACUUGUGAAUUUACUGUUGAUGUGGUAGCCACCUGCUGCAAUGGUUCCUCUUGUAGGUGAAUAAAUGUCUUGUCUACCCAC: 0.698
UGGUUCAGCAUACCUUAUAGUUCGUAUAUAACCUGUAUUAAUUGUAUAGAUUGUGCAUUUAAAGCUGUUACCAAGUUGUCAGAACCCUAAGAAUGAAAACAGGUCAUAUG: 2.53

Some of these lines once more (sample 6):
GCCCUAGUGCUUCCAUCUGAUGGGGUGACCACACCCCUCACAUUCCACAGGCCUGAUUUUUAUAAAAAACUACCAAUGCUGAUCAAUAAAGUGGGUUUUUUUUAUAGCUU: 0.339
CUGCUGCCCUAGCGCCGGCUUGGCCGCGCCCACGCGCCCUCAAGCCAUGCUGCUCCUUUCUGUAAAUACCCGCUGCAGUGGCGGCCCAGAGCGAGGAACAAGCCAUUAGG: 0.214
CCUGUAGAGACCUGAAAAUCCCACUUGUUUACCCUAGAAUUCAGUGGCAUUUACUGCUUCUUGAUCUCUAACCACUUGAGUUGGGUCAAGAGGAUUCUGGGCGUGGCAAG: 0.214
AUGUAUUGUAAAAUUUUGUAGUUUUGAUCACUUGUGAAUUUACUGUUGAUGUGGUAGCCACCUGCUGCAAUGGUUCCUCUUGUAGGUGAAUAAAUGUCUUGUCUACCCAC: 0.698
UCUGUGAUAGCUGUAGUUUCUUUCAUAGAAAGUAGCUAAUCCAGUGUAAUCUUUUACCUUUUUAAAAACCAAGAUAGAGUAUCUAUUAGAGUUUUACAUUGUUGAUGAUA: 0.357
